Measurements pooled from the literature.
Every numbered part comes from another study and shows a few of its results, in no order. Positions count from the first letter of the parent shown.

Set 1
Target: RING finger protein unkempt homolog, zinc fingers 1-6, GST-SBP tag (UNK, Homo sapiens, UniProt Q9C0B0, residues 30-357)
Method: RNA Bind-n-Seq
Molecule type: RNA
Medium: in vitro
Tested at: not given
Notes: RNA with constant flanks, human-mouse chimeric sites, ends assumed
Baseline: input RNA pool
Reading: higher = stronger binding
Target sequence (chain): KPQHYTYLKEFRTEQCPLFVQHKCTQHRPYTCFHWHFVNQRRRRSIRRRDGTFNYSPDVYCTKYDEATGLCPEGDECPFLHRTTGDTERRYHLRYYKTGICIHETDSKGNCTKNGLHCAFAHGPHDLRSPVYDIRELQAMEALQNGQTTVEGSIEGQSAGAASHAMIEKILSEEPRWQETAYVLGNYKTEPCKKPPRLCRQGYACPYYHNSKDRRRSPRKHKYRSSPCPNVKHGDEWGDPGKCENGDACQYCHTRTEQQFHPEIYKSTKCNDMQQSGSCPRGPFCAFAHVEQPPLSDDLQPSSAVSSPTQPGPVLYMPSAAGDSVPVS
With `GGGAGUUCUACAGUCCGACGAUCCACAGAGCAGCACCUACCCCCUCCUCCUUUCCACACCUGCAAACUCUUUUGCCUGGGCUGAAUAUUUAGUGUAAUUACAUCUCAGCUUUGAGGGCUCCCUGUGGCAAUUCCCGGAUUAAACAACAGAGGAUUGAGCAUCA` the bound/input enrichment was 1.09 ratio.
`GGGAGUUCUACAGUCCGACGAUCGGGUGGGUGGUCAUUGCCGUUUGAGCUGCUGAUUUUCAUGAGUCGCCCAUUCAGAACUCGUGUAGGGUUGACAAUGUGGGGGGGUGGGGGAUCCAGCUUAUUCUUUUAUUUUCAAGUCCACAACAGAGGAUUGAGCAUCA` gave a bound/input enrichment of 0.623 ratio.
For `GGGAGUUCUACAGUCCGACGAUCUUCUAGUAUGAUGGUGAUAUUGGCAAUUAUUAUUAUGGCCAGGGUCAUCCCAUGAAGCCUCAUAGAAUCCGGAUGACUCAUAACUUGCUGUUAAAUUAUGGUUUAUACCGAAAAAUGGAACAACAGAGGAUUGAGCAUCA`, the bound/input enrichment was 0.218 ratio.
The bound/input enrichment of `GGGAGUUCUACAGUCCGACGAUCGCGGCAGAAUCAUGGAGGACAUAAUGCAGCUCCCCAAAGCGCGCGUCAACGCCGGCAUGCUAGCUCAGUAUAUCGACCGGCCCGUGUGCUUCGUGGGGAAGCUGGAAAAGAUUCAUCCCACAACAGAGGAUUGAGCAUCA` is reported as 0.0659 ratio.
For `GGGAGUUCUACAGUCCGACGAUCCAGCCUCAGAGCCCUGACUUCCUGGAUAUUACCAACCCCAAAGCCGUAUUAGAAAAUGCAUUGAGAAACUUCGCCUGUCUGACGACUGGAGAUGUGAUUGCUAUCAACUACAAUGAGAAGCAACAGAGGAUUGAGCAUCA`, the bound/input enrichment was 0.536 ratio.
`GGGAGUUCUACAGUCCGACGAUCGCGGCAGAAUCAUGGAGGACAUAAUGCAGCUCCCCAAAGCGCGCGUCAACGCCGGCAUGUUACCACAAUUCAUCGACCGGCCCGUGUGCUUCGUGGGGAAGCUGGAAAAGAUUCAUCCCACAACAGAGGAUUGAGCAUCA` has a bound/input enrichment of 0.0754 ratio.
With `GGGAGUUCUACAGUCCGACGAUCGAGCCCAGCCGGCAGUUUGUAAAGGACUCAAUUCGGCUGGUUAAAAGAUGCACUAAACCUGAUAGAAAAGAAUUCCAGAAGAUUGCCAUGGCUACAGCUAUAGGAUUUGCUAUCAUGGGACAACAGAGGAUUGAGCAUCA` the bound/input enrichment was 0.212 ratio.
`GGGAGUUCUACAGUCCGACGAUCGUAAUGUUUAUUCAUUUAACUUAUUUUUAUAGCUAGAGCAAUAUUGUUAGUCUUAGACAAUAGCUCACAUUUUUUGAGAAGCAUGCCCUCCCUGUCCAUUUGUCUUAUAACAUGACCCAGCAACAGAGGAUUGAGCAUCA` has a bound/input enrichment of 31.9 ratio.
With `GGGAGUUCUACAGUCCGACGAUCUACUCAACUUUCUUGCCACAUUUUGAAUUCCAAGACAUUAUUCCUCCAGAUGACUUCCUAACGAGUGAUGAAGAGCAAGAUUUGGUUUUAUUUGGAAGUUUGAGAGGUCAUGUGGUUGGACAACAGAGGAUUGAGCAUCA` the bound/input enrichment was 0.197 ratio.
With `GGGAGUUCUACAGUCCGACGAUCCCAAUCGUGGAGCAGUACUUGAAGACAAAGAAAAAUUCUAAUAAUUUAAUCAUCAAGUACAUUAGCUGCCGCCUGCUGACACUCAUCAUUAUACUGUUAGCGUGUAUCUACCUGGGCUAUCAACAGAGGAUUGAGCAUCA` the bound/input enrichment was 0.379 ratio.
For `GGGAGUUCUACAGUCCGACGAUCGUAGCUGGGACUACAGAAAUGCUGGUAGUGCUCCGGCCUUGCUGAUGACUUCUGAUGUCCCAGCAAAUGUUGGCAUUGUUGACUGCUGAGAAGAUACUUCUGAGGACAUACAGCAGUGGUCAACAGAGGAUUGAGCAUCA`, the bound/input enrichment was 0.136 ratio.

Set 2
Target: CCNF, cyclin fold, Cln2 fusion (human)
Method: yeast growth competition, sequencing
Medium: yeast
Notes: weak parent motif
Baseline: not given
Reading: higher = stronger binding
Starting sequence: CDC42EP1 docking peptide (human); SLVVGKLSFDSSP; partner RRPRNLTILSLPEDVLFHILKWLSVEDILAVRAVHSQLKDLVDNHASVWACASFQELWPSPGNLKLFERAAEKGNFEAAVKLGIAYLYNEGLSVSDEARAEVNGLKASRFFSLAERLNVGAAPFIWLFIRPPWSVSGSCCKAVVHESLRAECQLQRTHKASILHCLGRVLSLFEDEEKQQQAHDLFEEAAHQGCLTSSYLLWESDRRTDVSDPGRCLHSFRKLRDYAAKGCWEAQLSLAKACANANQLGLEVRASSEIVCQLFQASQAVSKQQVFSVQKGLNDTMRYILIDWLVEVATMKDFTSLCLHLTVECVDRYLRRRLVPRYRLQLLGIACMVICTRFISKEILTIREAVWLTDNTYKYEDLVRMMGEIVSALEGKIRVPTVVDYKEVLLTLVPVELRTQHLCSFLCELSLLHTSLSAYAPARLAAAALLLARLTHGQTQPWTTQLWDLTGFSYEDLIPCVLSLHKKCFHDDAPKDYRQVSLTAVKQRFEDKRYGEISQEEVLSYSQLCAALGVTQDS
`S1A`: “normalised enrichment score” 0.13.
Under “normalised enrichment score”, `S12A` is recorded as 0.0719.
`L2A`: “normalised enrichment score” 0.222.
For `G5A`, “normalised enrichment score” read -0.228.
`S8A`: “normalised enrichment score” -0.188.
Under “normalised enrichment score”, `K6A` is recorded as -0.526.
`P13A`: “normalised enrichment score” -0.0733.

Set 3
Target: ABI1, truncated, D143A, DHFR fusion (Arabidopsis thaliana)
Method: DHFR PCA, deep sequencing
Medium: yeast
Notes: methotrexate growth selection, single substitutions
Together with: (+)-ABA 0.0091 µM
Baseline: wild-type fitted maximum
Reading: higher = stronger binding
Starting sequence: PYL1, truncated, DHFR fusion (Arabidopsis thaliana); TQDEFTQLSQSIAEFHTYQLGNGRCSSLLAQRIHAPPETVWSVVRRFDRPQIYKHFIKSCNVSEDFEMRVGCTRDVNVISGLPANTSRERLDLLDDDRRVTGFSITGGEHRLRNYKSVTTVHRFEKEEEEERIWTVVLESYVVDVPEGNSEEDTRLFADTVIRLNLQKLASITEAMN; partner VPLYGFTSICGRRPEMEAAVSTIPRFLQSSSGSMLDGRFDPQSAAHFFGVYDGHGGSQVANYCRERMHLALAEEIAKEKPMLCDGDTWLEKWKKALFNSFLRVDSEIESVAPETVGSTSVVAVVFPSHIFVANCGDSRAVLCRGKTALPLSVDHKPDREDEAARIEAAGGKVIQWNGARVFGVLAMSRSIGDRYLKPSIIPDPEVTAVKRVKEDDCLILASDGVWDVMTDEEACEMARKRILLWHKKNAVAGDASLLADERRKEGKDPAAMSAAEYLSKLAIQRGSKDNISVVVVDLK
For `N165P`, “relative binding score” read 4.69%.
`V70F`: “relative binding score” -1.65%.
For `V70D`, “relative binding score” read 7.25%.
`S117I`: “relative binding score” -9.3%.
`D96E` — result for “relative binding score”: 47.1%.
Under “relative binding score”, `K126Q` is recorded as 42.4%.
Under “relative binding score”, `G81I` is recorded as -0.387%.
For `D95M`, “relative binding score” read -5.05%.
`S11Y` — result for “relative binding score”: 28.4%.
Under “relative binding score”, `S27K` is recorded as -4.38%.

Single results of other studies
The fold induction of `PhoQ, residues 284 288 289 292 302 303 HSYLQF` is reported as 11.1 (PhoP, residues 12 14 15 18 19 LHTVM (Escherichia coli, UniProt P23836); Sort-seq, measured: YFP reporter; E. coli; PhoQ-PhoP variant library, together with: 10 µM Mg2+; baseline: high Mg2+ state, higher = stronger signaling).
